Experimental data collected from several papers.
Compare with care: the assays were run in different laboratories. “And” joins repeats or separate records; there may be more than shown.
EGFR T790M: Epidermal growth factor receptor (EGFR, Homo sapiens, UniProt P00533, T790M)
EGFR: Epidermal growth factor receptor (EGFR, Homo sapiens, UniProt P00533)
EGFR G719S: Epidermal growth factor receptor (EGFR, Homo sapiens, UniProt P00533, G719S)

O=C=[N][Ru-4]123([n]4c5ccc(O)cc5c5c6c(c7cc(F)c[n+]1c7c54)C(=O)NC6=O)[S+]1CC[S+]2CC[S+]3CC1 (stereo not drawn)  remaining activity (EGFR T790M; enzyme activity; 100 nM, human enzyme, together with: 10 µM ATP; relative to: untreated): 111%
Cc1cnc2nc1Nc1cccc(c1)COC/C=C/COCc1cc(ccc1OCCN1CCOCC1)N2  remaining activity (EGFR (Homo sapiens, UniProt P00533, G719C); concentration not given; relative to: untreated control): 91%
O=C(Cc1ccc(OCc2ccccc2)cc1)NC1(C(=O)O)CCN(C(=O)c2ccc(-c3cccc(Cl)c3)cc2)CC1  activity vs control (EGFR; enzyme activity, inhibitor; 10 µM): 119%
C=CC(=O)N1CCc2ccc(-n3c(=O)ccc4cnc5ccc(-c6cnn(C)c6)cc5c43)cc21  remaining binding (EGFR G719S; KINOMEscan; 1 µM; relative to: DMSO control): 67%
C=C1CCCCCCCCCC(CO)C1=O (stereo not drawn)  remaining signal (EGFR; cell-free assay; 10 µM): 100%
CNC(=O)C1CCN(c2cc(C)c(F)cc2NC(=O)c2ccc(-c3cc(O)ccc3C)c(C)c2)CC1  remaining binding (EGFR G719S; binding, competition with immobilised ligand; 1 µM): 56%
Nc1ncc2c(n1)-c1c([nH]c3ccc(C4=CCOCC4)cc13)CCC2  remaining binding (EGFR (Homo sapiens, UniProt P00533, del746-750); binding, competition with immobilised ligand; 1 µM): 21%
CCN1CCN(Cc2ccc(C(=O)Nc3ccc(C)c(NCc4cnc5[nH]ccc5c4OC)c3)cc2C(F)(F)F)CC1  remaining binding (EGFR; binding, competition with immobilised ligand; 1 µM): 4%
O=C(O)CCC(=O)c1cccc(NS(=O)(=O)c2c[nH]c3ncccc23)c1  remaining activity (EGFR; kinase activity, radiometric; 10 µM): 98%
CC(C)=CC1OC(C)(C)C2C=C3C(=O)C(Cl)=CC(O)C3C3C(O)C4OC4C(=O)C132 (stereo not drawn)  remaining binding (EGFR (Homo sapiens, UniProt P00533, del747-752/P753S); cell-free assay, competition with immobilised ligand; 10 µM): 96%
CNC1C[S+]2CC[S+]3CC[S+](C1)[Ru-4]321([N]=C=S)[n]2c3ccc(OC)cc3c3c4c(c5cc(F)c[n+]1c5c32)C(=O)NC4=O (stereo not drawn)  remaining binding (EGFR (Homo sapiens, UniProt P00533, L858R); KinomeScan; 0.1 µM; relative to: untreated): 98%
CNC(=O)C[C@H](Cc1ccc(C#N)cc1)NC(=O)c1cc(-c2ccc(CN[C@H](C)c3ccc(C)cc3)o2)ccc1Cl  activity vs control (EGFR; enzyme activity, inhibitor; 1 µM): 104%
CC(C)[C@H](NC(=O)[C@H](CCC(=O)O)NC(=O)[C@H](CCC(=O)O)NC(=O)[C@@H]1Cc2ccc(O)cc2CN1C(=O)[C@H](CCC(=O)O)NC(=O)[C@H](CC(=O)O)NC(=O)[C@H](CC(=O)O)NC(=O)[C@H](CCC(=O)O)NC(=O)c1ccc2c(c1)C1(OC2=O)c2ccc(O)cc2Oc2cc(O)ccc21)C(N)=O  Km (EGFR; enzyme activity, substrate): 18.3 µM and 18 µM
COCC12C(=O)NC3C4(C(OC)CC1O)C1CC5(O)C(OC)C(O)C(OC(C)=O)(C1C5OC(=O)c1ccccc1)C3(O)C(OC)C24 (stereo not drawn)  remaining activity (EGFR T790M; kinase activity, inhibitor, ProQinase kinase profiling; 25 µM; relative to: control): 103% and 104%
COc1ccc(NC(=O)Nc2ccc3c(c2)C(=O)N(C(C)CO)CC(C)C(CN(C)Cc2ccc4c(c2)OCO4)O3)cc1 (stereo not drawn)  remaining activity (EGFR; kinase activity, KinaseProfiler; 0.03 µM, species human; relative to: control): 104%
